Measurements of several laboratories.
A part holds a random share of what one study measured.

Set 1
Target: Interferon regulatory factor 7, full length, phosphomimetic (IRF7, Homo sapiens, UniProt Q92985, residues 1-503, S101K/S471D/S472D/S475D/S476D/S477D/S483D/S484D/S487D)
Sequence of UniProt Q92985 (whole entry, unmodified, looked up): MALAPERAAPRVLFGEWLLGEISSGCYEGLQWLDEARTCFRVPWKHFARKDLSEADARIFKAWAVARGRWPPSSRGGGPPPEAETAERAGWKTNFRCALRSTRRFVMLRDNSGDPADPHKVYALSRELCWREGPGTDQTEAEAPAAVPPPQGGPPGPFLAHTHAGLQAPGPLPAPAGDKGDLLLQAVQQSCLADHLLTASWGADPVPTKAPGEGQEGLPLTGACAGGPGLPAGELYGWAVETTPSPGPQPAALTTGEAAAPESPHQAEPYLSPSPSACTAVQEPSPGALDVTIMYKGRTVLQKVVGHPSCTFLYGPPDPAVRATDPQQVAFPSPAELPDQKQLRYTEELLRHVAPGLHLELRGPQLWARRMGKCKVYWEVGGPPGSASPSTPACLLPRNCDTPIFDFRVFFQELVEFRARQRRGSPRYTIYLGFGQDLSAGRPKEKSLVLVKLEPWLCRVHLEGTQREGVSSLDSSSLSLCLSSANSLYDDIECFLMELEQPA
Technique: protein-binding microarray
Form: double-stranded DNA, one strand shown
Medium: in vitro
Concentration: 250 nM
Setting: 60-bp whole probe
Together with: salmon DNA 0.4 mg/ml
Baseline: random background probes
Direction: higher = stronger binding
Endpoint: log fluorescence
Constant ends, left off below: GCCTAGCAC … GTCTTGATTCGCTTGACGCTGCTG
GACGATTTCGGAACTGGAGACGTGCTA: 0.429 z-score
GTAGGACTGGGGTTTCGGTTAGTGCTA: 5.02 z-score
TCAGTTTTGAGTTTTCCACTGTGCTAG: 1.31 z-score
TCATATATCATTTAATTACTGTGCTAG: 0.856 z-score
TCATGACTCTTTCTGTCACTGTGCTAG: 0.185 z-score

Set 2
Target: Sal-like protein 4, full length isoform A (SALL4, Homo sapiens, UniProt Q9UJQ4, residues 1-1053)
Sequence of UniProt Q9UJQ4 (whole entry, looked up): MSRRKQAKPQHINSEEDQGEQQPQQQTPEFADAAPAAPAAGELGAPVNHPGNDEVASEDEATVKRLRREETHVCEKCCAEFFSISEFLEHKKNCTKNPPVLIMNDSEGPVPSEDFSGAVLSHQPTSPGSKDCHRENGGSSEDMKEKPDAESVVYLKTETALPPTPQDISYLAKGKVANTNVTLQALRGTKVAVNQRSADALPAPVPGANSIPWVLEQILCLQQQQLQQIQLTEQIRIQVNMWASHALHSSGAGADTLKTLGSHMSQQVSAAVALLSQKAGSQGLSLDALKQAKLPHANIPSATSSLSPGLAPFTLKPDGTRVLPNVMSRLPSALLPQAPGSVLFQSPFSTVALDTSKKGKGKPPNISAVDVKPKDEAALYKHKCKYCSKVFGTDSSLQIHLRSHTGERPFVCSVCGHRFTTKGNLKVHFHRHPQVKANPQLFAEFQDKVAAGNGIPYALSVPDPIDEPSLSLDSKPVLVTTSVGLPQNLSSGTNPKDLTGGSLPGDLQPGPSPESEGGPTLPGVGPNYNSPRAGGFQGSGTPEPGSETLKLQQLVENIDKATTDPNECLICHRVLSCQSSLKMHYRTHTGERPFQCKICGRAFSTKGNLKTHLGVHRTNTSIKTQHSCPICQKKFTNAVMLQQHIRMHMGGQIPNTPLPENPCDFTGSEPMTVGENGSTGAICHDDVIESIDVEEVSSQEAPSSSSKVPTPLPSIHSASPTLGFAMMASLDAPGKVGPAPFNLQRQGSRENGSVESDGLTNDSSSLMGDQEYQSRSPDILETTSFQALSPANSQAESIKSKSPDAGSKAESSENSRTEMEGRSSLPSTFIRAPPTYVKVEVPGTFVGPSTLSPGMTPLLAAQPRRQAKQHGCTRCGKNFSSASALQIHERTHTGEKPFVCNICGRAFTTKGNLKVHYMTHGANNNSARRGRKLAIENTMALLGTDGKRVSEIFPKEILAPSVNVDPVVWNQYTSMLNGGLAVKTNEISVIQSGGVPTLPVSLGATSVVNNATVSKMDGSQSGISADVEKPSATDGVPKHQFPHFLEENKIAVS
Technique: universal PBM
Form: double-stranded DNA, one strand shown
Medium: in vitro
Concentration: 600 nM
Setting: 8-mer, flanks averaged, mean of replicates
Direction: higher = stronger binding
Endpoint: E-score
ACCTATTA: 0.174
ATCGCCTC: 0.0495
AGCTGCCG: -0.164
GGTGTAAC: -0.0237
AGTCTGTA: 0.0824
AGCCGATG: -0.257

Other studies, line by line
G3BP1 full length: Ras GTPase-activating protein-binding protein 1, full length (G3BP1, Homo sapiens, UniProt Q13283)
Sequence of UniProt Q13283 (whole entry, looked up): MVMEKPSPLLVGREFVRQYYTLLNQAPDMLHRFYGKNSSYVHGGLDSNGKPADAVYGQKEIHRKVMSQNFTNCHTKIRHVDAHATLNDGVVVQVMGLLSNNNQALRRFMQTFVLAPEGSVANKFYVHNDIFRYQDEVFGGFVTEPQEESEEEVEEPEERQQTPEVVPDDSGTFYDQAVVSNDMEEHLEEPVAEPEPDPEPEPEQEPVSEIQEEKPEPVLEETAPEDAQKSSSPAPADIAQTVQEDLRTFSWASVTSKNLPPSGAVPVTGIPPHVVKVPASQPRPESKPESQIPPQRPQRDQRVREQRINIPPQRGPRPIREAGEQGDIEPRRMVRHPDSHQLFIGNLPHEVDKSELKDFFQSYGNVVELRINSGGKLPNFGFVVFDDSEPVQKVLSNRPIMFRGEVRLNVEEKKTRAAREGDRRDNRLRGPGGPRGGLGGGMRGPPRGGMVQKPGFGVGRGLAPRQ
GGGAGUUCUACAGUCCGACGAUCUCAAGUCCUGUGCUACACAUCGUAUGUACCGAAUCGGUUUUUUUGGUGGAAAGGAAAGUAUUAUGUUACGCCGUUCGGAUCUGCACUUCCUGGAAUUCUCGGGUGUCAAGG (7-deaza-guanosine replaces G) — log2 enrichment (G3BP1 full length; RNA Bind-n-Seq; RNA, in vitro; 200 nM, whole 134-nt RNA, ends assumed, together with: 150 mM LiCl; baseline: input library, higher = stronger binding): -0.116
PhoQ, residues 284 288 289 292 302 303 ASASEQ — fold induction (PhoP, residues 12 14 15 18 19 SPWRL (Escherichia coli, UniProt P23836); Sort-seq, measured: YFP reporter; E. coli; PhoQ-PhoP variant library, together with: 10 µM Mg2+; baseline: high Mg2+ state, higher = stronger signaling): 1.18
GGGAGUUCUACAGUCCGACGAUCUCCUGUGCUACACAUCGUAUGUACCGAAUCGGGGCCCCCCGGGCCCCCCGGCCCCCCGGGAAAGUAUUAUGUUACGCCGUUCGGAUCUGCUGGAAUUCUCGGGUGUCAAGG (7-deaza-guanosine replaces G) — log2 enrichment (G3BP1 full length; RNA Bind-n-Seq; RNA, in vitro; 200 nM, whole 134-nt RNA, ends assumed, together with: 150 mM LiCl; baseline: input library, higher = stronger binding): 0.398
